Experimental data of several laboratories.
Each line is one published result; not all experiments were run side by side. ± marks the error that the study gave.

COC(=O)[C@@]1(C)C=C(C(=O)Nc2cccc(C(=O)NC34CC(Nc5nccc(-c6cccnc6)n5)(C3)C4)c2)C(=O)CC1 — AP1 reporter activity (HEK293 AP1 reporter cells; reporter gene, inhibitor, luciferase reporter; 10 µM, 6 h, unit not given, added: PMA; reference: PMA-stimulated): 0.115
CCCCCCCCCCCCCC[C@@H](O)[C@@H](O)[C@H](CO[C@H]1O[C@H](CO)[C@H](O)[C@H](O)[C@H]1O)NC(=O)CCCCCc1ccccc1 — IFN-γ/IL-4 ratio (human Vα24+ NKT cells; agonist; 10 ng/mL, 24 h, added: CD1d-transfected HeLa cells; reference: α-GalCer): 1.53 ± 0.15
CCCCCCCCCCCCCCCCNNC(=O)c1ccc(N(C)C)cc1 — histone H3 acetylation (HEK293T; immunoblot; up to 50 µM, 6 h): no effect
COc1ccc(CCC2OC(=O)C3CCCCN3C(=O)C(=O)C(C)(C)COC(=O)C=CCCN(C)C(=O)CNC(=O)C(COC(C)(C)C)N(C)C(=O)C(Cc3ccc4ccccc4c3)NC(=O)C(C)N(C)C(=O)COc3cccc2c3)cc1OC (stereo not shown) — cell proliferation (HEK-293T; alamar blue): inhibited
CN1CCN(c2ccc(-c3cccc(CN4CCN(CCNC(=O)CCCCCCCNc5cccc6c5C(=O)N(C5CCC(=O)NC5=O)C6=O)CC4)c3)cc2NC(=O)c2c[nH]c(=O)cc2C(F)(F)F)CC1 (stereo not shown) — down-regulated genes (MV4;11; RNA-seq; 0.5 µM, 4 d, unit not given; reference: DMSO): 312
Cc1cc(Nc2ncc3c(n2)N(C)C(=O)N(c2cc(NC(=O)c4cccc(C(F)(F)F)c4)ccc2C)C3)n(C)n1 — GI50 (Hep3B (FGFR4 overexpressing); cell proliferation, CellTiter-Glo; 72 h): 586 ± 170 nM
CCCCCCCCCCCCCC[C@@H](O)[C@@H](O)[C@H](CO[C@H]1O[C@H](CO)[C@H](O)[C@H](O)[C@H]1O)NC(=O)CCCCCCCCCCc1ccc(C(F)(F)F)cc1 — IFN-γ secretion (human Vα24+ NKT cells; agonist, ELISA; 10 ng/mL, 24 h, unit not given, added: CD1d-transfected HeLa cells; reference: α-GalCer): 1.65 ± 0.2
CCN1CCN(c2ccc(Nc3ncc4c(n3)N(C)C(=O)N(c3cc(NC(=O)c5cccc(C(F)(F)F)c5)ccc3C)C4)cn2)CC1 — GI50 (Huh-7 (FGFR4 overexpressing); cell proliferation, CellTiter-Glo; 72 h): 21 ± 10 nM
O=C1Nc2cccc(C#CC3(O)CCNCC3)c2/C1=C/c1cc2ccccc2[nH]1 — motile vesicle fraction (Src-transformed 3T3 cells; time-lapse microscopy, measured: TKS5 vesicles; 100 nM, 1 min; reference: total vesicles): 6%
CC(=O)N1CCN(c2ccc(Nc3ncc4c(n3)N(C)C(=O)N(c3cc(NC(=O)c5ccc(CN6CCC(N(C)C)C6)c(C(F)(F)F)c5)ccc3C)C4)cn2)CC1 (stereo not shown) — GI50 (Huh-7 (FGFR4 overexpressing); cell proliferation, CellTiter-Glo; 72 h): 6 nM
CCOc1ccccc1Nc1nnc(SCC(=O)Nc2cc(F)ccc2F)s1 — IFN-γ level (A549 spheroids with human PBMCs; 10 µM, 48 h, E:T 5:1, added: anti-CD3 0.3 µg/mL): 35 ± 5 pg/mL
COC1=CC(=O)O/C1=C(\OC)c1ccccc1 — luciferase induction (MCF7 transfected; ERE reporter gene, agonist; added: ICI 182780 1 µM): inhibited
O=C(NNC(=S)Nc1cccc(C(F)(F)F)c1)c1cccn1-c1ccc(F)cc1 — PSA secretion (LNCaP; ELISA; 24 h, added: DHT): inhibited
C=CC(=O)Nc1cccc(N(C(=O)OCc2ccc(F)cc2)c2ccnc(Nc3ccn(C)n3)n2)c1 — EC50 (Ba/F3 HER2 YVMA insertion; cell growth; inactive means EC50 above 10 µM): 31 ± 3.4 nM
C=CC(=O)N1CCC(c2cc(Nc3cc4n(n3)CCOC4)c3ncnn3c2)C1 (single isomer, unassigned) — IC50 (TMD8 wild type; calcium flux, FLIPR; 4 h preincubation, added: anti-IgM): > 1000 nM
Cc1ccc(NC(=O)c2cccc(C(F)(F)F)c2)cc1N1Cc2cnc(Nc3cnn(C)c3)nc2N(C)C1=O — GI50 (Hep3B (FGFR4 overexpressing); cell proliferation, CellTiter-Glo; 72 h): 252 ± 160 nM
CC(=O)OC1CC[C@H]2C3=C(CC[C@]12C)[C@]1(C)c2c(coc2C3=O)[C@H](OC(C)=O)[C@@H]2O[C@@H]21 (stereo partly shown) — sub-G1 cells (MDA-MB-231; PI flow cytometry; 10 µM): 73.6%
CN1CCN(c2cc(C(=O)Nc3ccc4c(c3)-c3c(c(C(N)=O)nn3-c3ccc(F)cc3)CC4)c(Cl)cn2)CC1 — TAK-1 phosphorylation (RA synovial fibroblasts; Western blot; concentration not given, 30 min pretreatment, IL-1β for 10 min, added: IL-1β 1 ng/mL): no effect
CC(=O)N1CCN(c2ccc(Nc3ncc4c(n3)N(C)C(=O)N(c3cc(NC(=O)c5cccc(C(F)(F)F)c5)ccc3C)C4)cn2)CC1 — GI50 (Huh-7 (FGFR4 overexpressing); cell proliferation, CellTiter-Glo; 72 h): 21 ± 10 nM
CCCCCCCCCCCCCC[C@@H](O)[C@@H](O)[C@H](CO[C@H]1O[C@H](CO)[C@H](O)[C@H](O)[C@H]1O)NC(=O)CCCCCCCCCc1ccccc1 — IL-4 secretion (human Vα24+ NKT cells; agonist, ELISA; 10 ng/mL, 24 h, unit not given, added: CD1d-transfected HeLa cells; reference: α-GalCer): 0.59 ± 0.15
Nc1ccc2cc(N)ncc2c1 — mRNA level (LX-2; qPCR, measured: IFN-γ; concentration not given, added: TGF-β1): increased
Cc1nn(C)c2c(C(C(=O)O)N3CC(OCCCCc4ccc5c(n4)NCCC5)C3)cccc12 (stereo not shown) — FAK phosphorylation (PAH PASMCs; Western blot, measured: FAK Tyr397): decreased
CCOC(=O)/C=C/CNCCCCN1c2ccccc2CCc2ccc(Cl)cc21 — protein level (B82L; immunoblot, measured: phospho-AKT; 1 µM, 4 h, added: EGF 100 ng/mL; reference: EGF alone): decreased
Cc1cc(OCCCc2c3n(c4c(-c5c(C)nn(C)c5C)c(Cl)ccc24)CCCN(c2cc(C(=O)O)cc4c2ccn4C)C3=O)cc(C)c1Cl — GI50 (K562; cell growth; 72 h, 10% FBS): 11500 ± 1500 nM
CCCCCCCCCCCCCC[C@@H](O)[C@@H](O)[C@H](CO[C@H]1O[C@H](CO)[C@H](O)[C@H](O)[C@H]1O)NC(=O)CCCCCCCCCCCCCCc1ccccc1 — IFN-γ/IL-4 ratio (human Vα24+ NKT cells; agonist; 10 ng/mL, 24 h, added: CD1d-transfected HeLa cells; reference: α-GalCer): 0.24 ± 0.03
CCOc1ccc(S(=O)(=O)NC(=O)Cc2ccc(I)cc2)cc1Br — inhibition (THP-1; CXCL10 secretion; cell supernatant; 100 µM): 71%
CC[C@@H](C)[C@H](N)C(=O)N1Cc2ccc(F)cc2C1 — IC50 (SET-2; cell viability, CellTiter-Glo): 20 nM
O=C(Nc1ccc2cc(NC(=O)C(F)(F)F)nc(Br)c2c1)C(F)(F)F — protein level (LX-2; western blot, measured: α-SMA; concentration not given, added: TGF-β1): decreased
Cc1ccc(NC(=O)c2ccc(CN3CCC(N(C)C)C3)c(C(F)(F)F)c2)cc1N1Cc2cnc(Nc3cnn(C)c3)nc2N(C)C1=O (stereo not shown) — GI50 (HepG2 (FGFR4 overexpressing); cell proliferation, CellTiter-Glo; 72 h): 405 ± 150 nM
O=C(N/N=C/c1ccc(Sc2ncccn2)s1)c1cccc(F)c1 — GI50 (D458 medulloblastoma; cell growth): 6300 nM
O=C(Nc1ccc([N+](=O)[O-])cc1)N[C@H](Cc1c[nH]c2ccccc12)C(=O)NCC1(c2ccccn2)CCCCC1 — EC50 (human neutrophils; Ca2+ mobilization, agonist; added: probenecid 2.5 mM): 460 nM
CCCCCCCCCCCCCC[C@@H](O)[C@@H](O)[C@H](CO[C@H]1O[C@H](CO)[C@H](O)[C@H](O)[C@H]1O)NC(=O)CCCCCCCc1ccc(-c2ccccc2)cc1 — IFN-γ secretion (human Vα24+ NKT cells; agonist, ELISA; 10 ng/mL, 24 h, unit not given, added: CD1d-transfected HeLa cells; reference: α-GalCer): 0.17 ± 0.003
O=C(N/N=C/c1ccc(Sc2ccccn2)s1)c1cccc(Oc2ccccc2)c1 — GI50 (D458 medulloblastoma; cell growth): 13300 nM
CCCCCCCCCCCCCC[C@@H](O)[C@@H](O)[C@H](CO[C@H]1O[C@H](CO)[C@H](O)[C@H](O)[C@H]1O)NC(=O)CCCCCCCCCCc1ccc(F)cc1 — IL-4 secretion (human Vα24+ NKT cells; agonist, ELISA; 10 ng/mL, 24 h, unit not given, added: CD1d-transfected HeLa cells; reference: α-GalCer): 0.81 ± 0.13
CCn1c(-c2cc(NC(=O)c3cnccn3)n[nH]2)cc2ccc(OC)cc21 — optimal effective concentration (N2a transfected with HTT; HTT aggregation; 12 h): 0.1 µM
CCN1CCN(c2ccc(Nc3ncc4c(n3)N(C)C(=O)N(c3cc(NC(=O)c5cccc(C(F)(F)F)c5)ccc3C)C4)cc2)CC1 — GI50 (Hep3B (FGFR4 overexpressing); cell proliferation, CellTiter-Glo; 72 h): 115 ± 20 nM
CC(=NN=c1[nH]c2cc(F)c(F)cc2n1C)c1ccc(F)cn1 — effective concentration (ER+ breast cancer PDX organoids; organoid growth, inhibitor; two weeks): 62.5 nM
CC(C)CN(CC(=O)N(CC(=O)N(CC(=O)N(CC(=O)N(CC(=O)N(CC(=O)N(CC(N)=O)Cc1ccccc1)Cc1ccccc1)CC(C)C)Cc1ccccc1)Cc1ccccc1)CC(C)C)C(=O)CNCCCCN — IL-1β, IL-6, IL-8 release (THP-1 derived macrophages; ELISA; 2, 10, 50 µM, 72 h, added: LPS 2 ng/mL): decreased
CCCCCCCCCCCCCC[C@@H](O)[C@@H](O)[C@H](CO[C@H]1O[C@H](CO)[C@H](O)[C@H](O)[C@H]1O)NC(=O)CCCCCCCCCCc1ccccc1 — IFN-γ secretion (human Vα24+ NKT cells; agonist, ELISA; 10 ng/mL, 24 h, unit not given, added: CD1d-transfected HeLa cells; reference: α-GalCer): 1.22 ± 0.08
CN1c2ccc(F)cc2C(=O)N2CCc3c([nH]c4ccc(OCc5cccc(C(=O)NO)c5)cc34)C21 (stereo not shown) — antiproliferative activity (HCT-116, MCF7, A549 cells; CCK-8; concentration not given): inactive
CN(C)C(=O)Cn1cc(-c2ccc(-c3cncc4ccncc34)cc2)cn1 — increase in lysis (HL-60 with human NK cells; ADCC, chromium-51 release; concentration not given, added: CD33 antibody BI 836858; reference: vehicle-treated NK cells): 25 to 75%
CCOc1cc(C(C)(C)C)ccc1C1=N[C@@H](c2ccc(Cl)cc2)[C@@H](c2ccc(Cl)cc2)N1C(=O)N1CCN(CC(=O)NCCOCCOCCOCCNC(=O)CN2CCN(C(=O)N3C(c4ccc(C(C)(C)C)cc4OCC)=N[C@H](c4ccc(Cl)cc4)[C@@H]3c3ccc(Cl)cc3)CC2=O)C(=O)C1 — IC50 (HCT-116 p53 wild type; cell growth, CCK-8): 9900 ± 1000 nM
Cc1ccccc1C(C(=O)NC1CCCCC1)N(C(=O)Cn1ccnc1C)c1cccc([125I])c1 (racemic) — uptake ratio (IDH1 R132H astrocytoma cells; cell uptake; no-carrier-added radiotracer; reference: mutant over wild-type cells): 1.7 to 2.1 fold

Excerpt of the above:
Cc1cc(Nc2ncc3c(n2)N(C)C(=O)N(c2cc(NC(=O)c4cccc(C(F)(F)F)c4)ccc2C)C3)n(C)n1 — GI50 (Hep3B (FGFR4 overexpressing); cell proliferation, CellTiter-Glo; 72 h): 586 ± 170 nM
O=C(N/N=C/c1ccc(Sc2ccccn2)s1)c1cccc(Oc2ccccc2)c1 — GI50 (D458 medulloblastoma; cell growth): 13300 nM
CCCCCCCCCCCCCC[C@@H](O)[C@@H](O)[C@H](CO[C@H]1O[C@H](CO)[C@H](O)[C@H](O)[C@H]1O)NC(=O)CCCCCCCCCCc1ccc(F)cc1 — IL-4 secretion (human Vα24+ NKT cells; agonist, ELISA; 10 ng/mL, 24 h, unit not given, added: CD1d-transfected HeLa cells; reference: α-GalCer): 0.81 ± 0.13
O=C(Nc1ccc([N+](=O)[O-])cc1)N[C@H](Cc1c[nH]c2ccccc12)C(=O)NCC1(c2ccccn2)CCCCC1 — EC50 (human neutrophils; Ca2+ mobilization, agonist; added: probenecid 2.5 mM): 460 nM
